Measured values gathered from unrelated publications.
A part holds a random share of what one study measured. Several values in a cell are separate wells, animals, samples, runs or records.
Chain of UniProt P00519 (whole entry, unmodified, looked up): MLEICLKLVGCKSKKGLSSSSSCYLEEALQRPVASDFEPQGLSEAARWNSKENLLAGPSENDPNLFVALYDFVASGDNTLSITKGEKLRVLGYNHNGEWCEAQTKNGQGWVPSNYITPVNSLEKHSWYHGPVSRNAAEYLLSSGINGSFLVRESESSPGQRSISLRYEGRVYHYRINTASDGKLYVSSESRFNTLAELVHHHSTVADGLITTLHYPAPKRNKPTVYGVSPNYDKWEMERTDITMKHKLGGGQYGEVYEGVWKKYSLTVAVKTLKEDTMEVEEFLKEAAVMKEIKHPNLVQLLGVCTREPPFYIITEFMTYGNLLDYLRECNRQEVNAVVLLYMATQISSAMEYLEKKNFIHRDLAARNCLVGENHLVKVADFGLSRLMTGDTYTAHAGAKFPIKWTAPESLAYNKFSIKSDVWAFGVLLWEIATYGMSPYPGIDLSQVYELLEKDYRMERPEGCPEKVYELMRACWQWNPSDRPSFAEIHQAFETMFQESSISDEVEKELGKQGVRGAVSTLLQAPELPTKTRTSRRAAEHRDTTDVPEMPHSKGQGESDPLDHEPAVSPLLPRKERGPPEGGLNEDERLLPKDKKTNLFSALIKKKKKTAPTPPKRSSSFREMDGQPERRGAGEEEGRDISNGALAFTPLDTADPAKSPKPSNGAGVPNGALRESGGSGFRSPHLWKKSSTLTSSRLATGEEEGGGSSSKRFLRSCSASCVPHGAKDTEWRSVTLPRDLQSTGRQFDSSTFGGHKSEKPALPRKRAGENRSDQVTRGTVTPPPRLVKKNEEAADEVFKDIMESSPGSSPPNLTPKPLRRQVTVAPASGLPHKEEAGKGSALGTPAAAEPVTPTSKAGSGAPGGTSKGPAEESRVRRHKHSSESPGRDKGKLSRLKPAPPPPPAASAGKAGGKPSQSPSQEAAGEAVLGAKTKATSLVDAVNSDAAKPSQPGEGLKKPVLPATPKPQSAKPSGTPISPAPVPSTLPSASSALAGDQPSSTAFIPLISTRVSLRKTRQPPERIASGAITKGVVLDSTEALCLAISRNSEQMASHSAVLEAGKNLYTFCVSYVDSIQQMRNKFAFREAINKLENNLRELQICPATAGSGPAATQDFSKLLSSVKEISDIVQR
Chain of UniProt P11802 (whole entry, looked up): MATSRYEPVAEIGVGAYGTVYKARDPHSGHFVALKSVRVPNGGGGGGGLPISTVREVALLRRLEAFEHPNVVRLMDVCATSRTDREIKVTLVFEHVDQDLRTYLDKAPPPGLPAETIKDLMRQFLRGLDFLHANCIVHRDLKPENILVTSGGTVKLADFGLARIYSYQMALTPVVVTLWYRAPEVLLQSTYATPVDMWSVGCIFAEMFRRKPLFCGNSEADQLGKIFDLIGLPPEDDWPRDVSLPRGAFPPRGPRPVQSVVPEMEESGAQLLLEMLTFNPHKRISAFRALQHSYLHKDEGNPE
Chain of UniProt Q96GD4 (whole entry, looked up): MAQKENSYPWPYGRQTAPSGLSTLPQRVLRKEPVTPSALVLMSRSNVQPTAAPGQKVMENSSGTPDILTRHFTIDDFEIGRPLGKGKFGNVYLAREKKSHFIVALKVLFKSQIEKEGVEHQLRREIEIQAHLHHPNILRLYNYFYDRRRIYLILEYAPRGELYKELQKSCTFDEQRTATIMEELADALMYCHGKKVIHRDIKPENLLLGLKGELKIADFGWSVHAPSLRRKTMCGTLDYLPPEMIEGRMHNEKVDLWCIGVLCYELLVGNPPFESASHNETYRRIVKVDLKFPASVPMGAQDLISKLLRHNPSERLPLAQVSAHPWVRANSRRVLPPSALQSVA
Chain of UniProt O00506 (whole entry, looked up): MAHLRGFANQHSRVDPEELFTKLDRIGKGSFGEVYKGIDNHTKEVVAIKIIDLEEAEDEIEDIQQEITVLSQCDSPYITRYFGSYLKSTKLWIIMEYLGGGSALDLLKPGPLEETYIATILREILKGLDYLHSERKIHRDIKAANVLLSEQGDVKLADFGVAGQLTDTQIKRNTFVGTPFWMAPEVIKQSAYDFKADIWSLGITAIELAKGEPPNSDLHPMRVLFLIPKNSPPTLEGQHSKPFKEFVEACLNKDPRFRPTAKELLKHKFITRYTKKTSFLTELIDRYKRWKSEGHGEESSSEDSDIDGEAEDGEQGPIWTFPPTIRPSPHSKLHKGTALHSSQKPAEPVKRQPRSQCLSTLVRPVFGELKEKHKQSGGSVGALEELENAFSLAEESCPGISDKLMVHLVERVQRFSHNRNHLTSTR
Chain of UniProt Q8TD19 (whole entry, looked up): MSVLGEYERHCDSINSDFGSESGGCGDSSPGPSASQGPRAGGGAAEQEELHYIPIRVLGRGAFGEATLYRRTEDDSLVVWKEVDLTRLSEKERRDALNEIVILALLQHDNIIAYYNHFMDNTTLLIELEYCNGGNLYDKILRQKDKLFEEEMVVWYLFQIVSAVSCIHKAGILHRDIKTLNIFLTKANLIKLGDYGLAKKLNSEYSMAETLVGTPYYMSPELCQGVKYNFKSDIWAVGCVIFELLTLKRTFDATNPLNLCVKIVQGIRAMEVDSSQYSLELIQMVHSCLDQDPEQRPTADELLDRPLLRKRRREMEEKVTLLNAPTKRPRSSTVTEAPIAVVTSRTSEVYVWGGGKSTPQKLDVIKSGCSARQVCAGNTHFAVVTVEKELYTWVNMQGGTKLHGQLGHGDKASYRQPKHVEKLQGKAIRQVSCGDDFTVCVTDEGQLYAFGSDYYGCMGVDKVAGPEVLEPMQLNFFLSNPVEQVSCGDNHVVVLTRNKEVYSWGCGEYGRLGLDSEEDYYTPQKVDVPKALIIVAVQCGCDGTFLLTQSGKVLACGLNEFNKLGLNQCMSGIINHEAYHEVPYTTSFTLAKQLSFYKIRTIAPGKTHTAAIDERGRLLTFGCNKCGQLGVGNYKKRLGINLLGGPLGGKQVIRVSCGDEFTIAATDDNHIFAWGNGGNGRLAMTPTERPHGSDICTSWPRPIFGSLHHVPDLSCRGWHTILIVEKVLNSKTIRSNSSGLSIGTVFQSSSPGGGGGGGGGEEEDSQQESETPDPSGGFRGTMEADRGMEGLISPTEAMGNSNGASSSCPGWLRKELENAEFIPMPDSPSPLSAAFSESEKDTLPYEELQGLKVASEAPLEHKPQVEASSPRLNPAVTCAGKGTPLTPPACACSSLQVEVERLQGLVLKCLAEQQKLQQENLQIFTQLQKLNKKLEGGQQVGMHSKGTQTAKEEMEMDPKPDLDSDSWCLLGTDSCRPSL
Chain of UniProt P36896 (whole entry, looked up): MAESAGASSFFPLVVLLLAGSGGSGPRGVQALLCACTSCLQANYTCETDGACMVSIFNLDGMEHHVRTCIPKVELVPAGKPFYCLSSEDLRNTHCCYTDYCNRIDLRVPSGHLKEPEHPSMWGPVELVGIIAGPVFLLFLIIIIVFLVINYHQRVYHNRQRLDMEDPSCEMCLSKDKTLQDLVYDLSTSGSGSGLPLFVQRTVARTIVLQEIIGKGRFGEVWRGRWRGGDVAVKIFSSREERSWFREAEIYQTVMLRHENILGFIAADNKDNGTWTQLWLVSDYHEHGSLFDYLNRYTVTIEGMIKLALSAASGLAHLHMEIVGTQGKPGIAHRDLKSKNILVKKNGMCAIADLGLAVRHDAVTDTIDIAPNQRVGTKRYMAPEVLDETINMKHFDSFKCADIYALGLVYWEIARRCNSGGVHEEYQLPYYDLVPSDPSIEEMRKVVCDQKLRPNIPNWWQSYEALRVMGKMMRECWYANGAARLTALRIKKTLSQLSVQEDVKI
Chain of UniProt Q8WTQ7 (whole entry, looked up): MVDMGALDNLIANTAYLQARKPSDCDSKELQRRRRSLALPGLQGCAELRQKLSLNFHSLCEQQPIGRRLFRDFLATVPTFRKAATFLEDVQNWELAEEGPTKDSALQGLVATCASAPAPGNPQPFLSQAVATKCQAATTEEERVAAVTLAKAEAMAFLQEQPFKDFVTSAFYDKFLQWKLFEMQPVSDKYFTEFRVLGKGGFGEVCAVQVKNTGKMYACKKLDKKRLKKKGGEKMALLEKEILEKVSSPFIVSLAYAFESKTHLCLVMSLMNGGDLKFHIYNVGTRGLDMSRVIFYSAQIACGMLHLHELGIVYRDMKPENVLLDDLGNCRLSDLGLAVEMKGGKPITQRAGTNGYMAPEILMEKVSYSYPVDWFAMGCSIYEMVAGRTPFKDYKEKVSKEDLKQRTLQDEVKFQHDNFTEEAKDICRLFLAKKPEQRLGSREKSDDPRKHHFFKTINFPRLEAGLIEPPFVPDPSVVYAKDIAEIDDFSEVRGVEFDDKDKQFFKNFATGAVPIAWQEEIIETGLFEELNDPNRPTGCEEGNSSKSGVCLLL

Set 1
Target: Mitogen-activated protein kinase kinase kinase 20 (MAP3K20, Homo sapiens, UniProt Q9NYL2)
Chain of UniProt Q9NYL2 (whole entry, looked up): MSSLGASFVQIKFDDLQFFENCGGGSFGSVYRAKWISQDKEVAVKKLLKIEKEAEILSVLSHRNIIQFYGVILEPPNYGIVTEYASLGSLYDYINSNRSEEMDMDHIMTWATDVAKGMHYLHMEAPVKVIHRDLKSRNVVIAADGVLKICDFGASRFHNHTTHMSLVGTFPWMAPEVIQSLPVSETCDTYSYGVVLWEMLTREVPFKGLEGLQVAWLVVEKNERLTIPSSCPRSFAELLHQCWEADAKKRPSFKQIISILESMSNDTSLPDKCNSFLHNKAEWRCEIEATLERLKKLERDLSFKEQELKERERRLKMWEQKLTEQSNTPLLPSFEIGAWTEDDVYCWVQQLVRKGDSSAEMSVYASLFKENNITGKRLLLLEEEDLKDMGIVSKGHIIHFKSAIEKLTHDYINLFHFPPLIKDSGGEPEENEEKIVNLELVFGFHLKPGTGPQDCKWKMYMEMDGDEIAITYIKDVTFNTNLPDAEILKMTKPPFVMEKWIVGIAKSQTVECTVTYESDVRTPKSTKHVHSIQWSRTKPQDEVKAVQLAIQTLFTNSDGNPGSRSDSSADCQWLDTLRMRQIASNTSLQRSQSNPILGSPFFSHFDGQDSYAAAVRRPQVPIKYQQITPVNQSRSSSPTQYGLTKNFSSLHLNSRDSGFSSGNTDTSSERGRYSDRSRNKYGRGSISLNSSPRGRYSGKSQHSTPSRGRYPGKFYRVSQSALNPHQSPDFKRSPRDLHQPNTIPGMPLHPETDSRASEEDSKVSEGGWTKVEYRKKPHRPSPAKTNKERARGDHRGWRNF
Observed: enzyme activity
Action: inhibitor
Tested at: 0.5 µM
Relative to: control
Quantity: remaining activity
N#CC(C#N)=C(N)/C(C#N)=C/c1ccc(O)cc1: 95.7%
Nc1[nH]nc2nc3ccccc3nc12: 96.3%
O=C(CCCc1ccc(-c2ccccc2F)cc1)Nc1ccc(O)cc1: 97.8%
COc1cc2ncnc(Nc3ccc(Oc4ccccc4)cc3)c2cc1OC: 95.2%
COc1ccc(CNC(=O)Nc2ncc([N+](=O)[O-])s2)cc1: 101%
Oc1ccc(-c2nc(-c3ccncc3)c(-c3ccc(F)cc3)[nH]2)cc1: 98.8%
O=C1NC(=O)C(c2cn(CCCn3ccnc3)c3ccccc23)=C1Nc1ccccc1: 104%
Cc1cccc(-c2[nH]c(C(C)(C)C)nc2-c2ccc3c(c2)OCO3)n1: 97.8%
CN(C)c1ccc(C=C2C(=O)Nc3ccccc32)cc1: 96.5%
COc1cc2nccc(Oc3ccc(NC(=S)NC(=O)c4ccccc4C)cc3)c2cc1OC: 71.7%
CC(C)[C@H](CO)Nc1nc(Nc2cc(N)cc(Cl)c2)c2ncn(C(C)C)c2n1: 92.3%
O=S(=O)(c1cccc2cnccc12)N1CCCNCC1: 101%
Cn1c2ccccc2c2c3c(c4c5ccccc5n(CCC#N)c4c21)CNC3=O: 86.6%

Set 2
SMILES: COc1cc(C(=O)N2CCC(N3CCN(C)CC3)CC2)ccc1Nc1ncc2c(n1)N(C)c1ccccc1C(=O)N2C
Cell line: human cells
Quantity: EC50
ACVR1B (Homo sapiens, UniProt P36896); kinase–CDC37 interaction, inhibitor; kinome plate 1@G03: > 10 µM
ABL1 (Homo sapiens, UniProt P00519, E316D); kinase-HSP90-CDC37 interaction, LUMIER: > 10 µM
Aurora kinase B (AURKB, Homo sapiens, UniProt Q96GD4); kinase-HSP90-CDC37 interaction, LUMIER: > 10 µM

Set 3
Cell line: mouse MPNST tumor cells
Method: high-content nuclear imaging
Refers to: cell number
Tested at: 10 µM
Time: 12 h
Setting: mean of 2 replicates
Relative to: plate mean
Direction: higher = more cells
Quantity: nuclei count
CC(CCC(=O)O)C1CCC2C3C(O)CC4CC(O)CCC4(C)C3CCC12C (stereo not drawn): 0.445 z-score
COc1cccc2c1C(=O)c1c(O)c3c(c(O)c1C2=O)C[C@@](O)(C(=O)CO)C[C@@H]3O[C@H]1C[C@H](N)[C@H](O)[C@H](C)O1: -5.68 z-score and -6.04 z-score
CCCCCCCCCCC(O)C1C=CC2C(=O)N(c3ccccc3)C(=O)C2N1Nc1ccc([N+](=O)[O-])cc1 (stereo not drawn): 3.12 z-score
CC(C)(C)c1ccc(NC(=O)N2CCN(c3ncccc3Cl)CC2)cc1: 0.545 z-score
CC[C@]12CCCN3CCc4c(n(c5ccccc45)[C@@](O)(C(=O)OC)C1)[C@@H]32: 3.55 z-score
COc1ccc2[nH]c(-c3ccccc3)c(CCNC(C)=O)c2c1: 1.78 z-score

Set 4
SMILES: CN(c1ccnc(CNc2nc(Nc3ccc4c(c3)CC(=O)N4)ncc2C(F)(F)F)n1)S(C)(=O)=O
Observed: cell-free assay
Method: competition with immobilised ligand
Tested at: 1 µM
Quantity: remaining binding
Cyclin-dependent kinase 4, with cyclin D1 (CDK4, Homo sapiens, UniProt P11802): 93%
NEK9 (Homo sapiens, UniProt Q8TD19): 63%
TAOK2 (Homo sapiens, UniProt Q9UL54): 58%
STK25 (Homo sapiens, UniProt O00506): 82%
GRK7 (Homo sapiens, UniProt Q8WTQ7): 29%

Repeated from above (set 1):
Oc1ccc(-c2nc(-c3ccncc3)c(-c3ccc(F)cc3)[nH]2)cc1: 98.8%
N#CC(C#N)=C(N)/C(C#N)=C/c1ccc(O)cc1: 95.7%
O=C1NC(=O)C(c2cn(CCCn3ccnc3)c3ccccc23)=C1Nc1ccccc1: 104%
Cc1cccc(-c2[nH]c(C(C)(C)C)nc2-c2ccc3c(c2)OCO3)n1: 97.8%
